Published values pooled from the literature.
Every numbered part comes from another study and shows a few of its results, in no order.

Sample 1 — technique: RNA Bind-n-Seq; form: RNA; matrix: in vitro; tested at: 365 nM; baseline: no-protein control; direction: higher = stronger binding
Target: RNA binding protein fox-1 homolog 2, RRM domain, GST-SBP tag (RBFOX2, Homo sapiens, UniProt O43251-10, residues 100-194)
Notes: natural RNA segment, single round, ends assumed
All sequences stand within: GGGAGUUCUACAGUCCGACGAUC … UGGAAUUCUCGGGUGCCAA
Target sequence (chain): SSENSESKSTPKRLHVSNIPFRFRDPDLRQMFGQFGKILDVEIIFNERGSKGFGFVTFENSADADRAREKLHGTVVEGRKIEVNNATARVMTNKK
`CAGACUGGAAAAGUGAUGUAUUUUCAUAGUGACCUGUGUUUCACUUAAUGUUUCUUAGAGCCAAGUGUCUUUUAAACAUUAUUUUUUAUUUCUGAUUUCAUAAUUCAGAA` — result for “RBNS enrichment (R)”: 0.593.
For `CCAUCACAGUACCAGCCACUGGUCACUCUGACCCUGCUUUGCCAAGAGUCCUUUCUCAGACAACUGAGGGAGUGUUUGGGGUGAUAUCCCAGAGACCUGGAGUUCCAGUG`, “RBNS enrichment (R)” read 0.284.
For `AAAAAUAAAUUGAAAAUUAAAGUCAGAUGAGAAUAGGAAUAAUACUUUGCCACUUCUGCAUUAUUUAGAAACAUACGUUAUUGUACAUUUGUAAACCAUUUACUGUCUGG`, “RBNS enrichment (R)” read 0.445.
Under “RBNS enrichment (R)”, `GAGUGUGAAUAUUCUUAUUUAAAGUAUAUUUUUACAUUAUGCAAAUGAACUUUAACAUUUUAGUCCAAUGUGACUAGUCAAAUAAACCAAAUAAACUGAGUAUUUUGUCU` is recorded as 0.742.
`CUUUCCCAUUGACCACUUUGGGUUUGACCUGCACAUCUGCAGUGAGGGCAGAAUUCAACAAGCACAACUCACUGGUCUUUCAGUCAACGUGCUAGAAACCGAUGACUUAU` — result for “RBNS enrichment (R)”: 0.319.
`UUCCUUACUCCUGUUGGCUUGAUGGAACAGGUGCAUUCACACUAUGAAACAGAAAGAUCUGUCCAAGGACACAGCUUGUAUGAAAGGGUUGAAUUUGGGCUCCAUCAGUA`: “RBNS enrichment (R)” 2.38.
For `AAUCAUUGAAUACUUCAAUCAGGAUAUUAUCUGCUUUACUUUACAAAUAAAACCAAAUCUUUUGUCAACAGGAUGAAACCCAUCUUAAAGGAAAGAAAAGGAAUUGGUGU`, “RBNS enrichment (R)” read 0.432.
`GCUUACGUGGCCUGCUGUCCUCUGUGUGAUUAGGAGGGUUUCUGCUGGCCCUGCAGCUUGCUUCCCUGCGGAUUAGGCCUUUGCUCAUGCUAUAGCCUUCAUGUGGGUGC`: “RBNS enrichment (R)” 0.686.
`CUACCCGAUUUGUUUAUUUGCAAUUUGAGCCAUUUAAAGACCAAUAAACUUCCUUUUUUAAAAUGUUUGUGGUGUUACUUGAUGUUUACAAUGUAACAUGUAACAUUCAA` — result for “RBNS enrichment (R)”: 0.378.
`GAUAAAACAUUAAAAUGAAAACCAGUUUUUCAGGAUGCAUAGGUAAGGAAUGAUUGCUAUAUUAUAUAUAAUUUUUAUGUGAAGCCUGUUUGACUAAUGUGUCUGGACUA`: “RBNS enrichment (R)” 1.54.
Under “RBNS enrichment (R)”, `UCAAGUUUCUGGACACCAAGUCUCUGGGAACUAGUGUUUGAUUUUAAAUGGCAUGUGGCCCUUCCUUGUUUCAGUGACUUAGAAAAGUAAAAGCCAUUUAAAAAAGUUAG` is recorded as 0.317.
Under “RBNS enrichment (R)”, `CUGUUGCUAUUUAGGACCAAAACAUUUUCAGACAGUAGGUAGGCUUUUACAUUCCCUUGCUCCGUUACCUAACGACUUAAACCAGUUCCUUGCUUCCCCCAUCCCUACAC` is recorded as 1.21.

Sample 2 — technique: RNA Bind-n-Seq; form: RNA; matrix: in vitro; tested at: not given; baseline: input RNA pool; direction: higher = stronger binding
Target: RING finger protein unkempt homolog, zinc fingers 1-6, GST-SBP tag (UNK, Homo sapiens, UniProt Q9C0B0, residues 30-357)
Chain of UniProt Q9C0B0 (30-357, looked up): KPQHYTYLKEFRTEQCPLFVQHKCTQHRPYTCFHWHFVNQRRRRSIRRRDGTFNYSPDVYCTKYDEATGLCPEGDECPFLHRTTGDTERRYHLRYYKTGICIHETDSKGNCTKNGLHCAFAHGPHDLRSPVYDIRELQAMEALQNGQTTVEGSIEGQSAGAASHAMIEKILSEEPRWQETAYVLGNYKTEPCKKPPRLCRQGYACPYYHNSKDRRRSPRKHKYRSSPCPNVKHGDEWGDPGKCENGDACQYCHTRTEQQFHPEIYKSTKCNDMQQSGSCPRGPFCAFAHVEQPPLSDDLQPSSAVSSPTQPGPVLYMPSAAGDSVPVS
Notes: RNA with constant flanks, human-mouse chimeric sites, ends assumed
All sequences stand within: GGGAGUUCUACAGUCCGACGAUC … CAACAGAGGAUUGAGCAUCA
`AUAGAUGAAAUUGAUGUGGACCAGGAAGGAAUUGCUGAAAUGAUCCUGGAUGAAAAUGCUAUUGCUCAAGUUCCACGCCCUGGCACAUCUUUGAAACUCCCUGGCACUAACCAAACAGGA` has a bound/input enrichment of 0.266 ratio.
With `UCGGAUGAGGUGCUGGGUCACUUUUCAUAUCCAGAUCCUUCACAGUGGACAGAUGAAGAACUGGGAAUCCCUCCUGAUGACGAGGACUGAAGGUGUAAACUCUCUGGACGAGUAGGAGCA` the bound/input enrichment was 0.688 ratio.
The bound/input enrichment of `AGAGAUAAGACAUCCAGGAACAUGCGAGGGUCACGGAUGAAUGGGUUUCCAAGUCCCACUCACAGCGCCCACUGUAGCUUCUACCGAACCAGAACCUUGCAGGCACUGAGUAAUGAGAAG` is reported as 0.129 ratio.
`CUUAUGGCUGCAGAAACAGGAAGUGGAAAAACUGGUGCAUUUAGUAUUCCCGUUAUCCAGAUAGUGUAUGAAACUCUGAAAGACCAACAGGAAGGAAAAAAAGGAAAAACAACUAUUAAA` has a bound/input enrichment of 1.27 ratio.
With `AUCCAGUACUCGAAUCACAAAGAACUAAAGACAGAUAAUACAUUAAACCAACGUGCUCAAGUAGUUCUUCAAGCUGUGACAGCGGUCCAGACAGCAAAUACUCCUCUUAGUGGCACCACA` the bound/input enrichment was 0.37 ratio.
With `UCAAGGGGGCACUGCAGGGCCAUGCCUUUCCUUGACAUACAGAAAAAGCUGGGCAUCAGCCUGGACCGGCACUUUAUGUUCCUAAGCGCAGAACAGCCCUAUAAGAACGCCGCUCGGUGC` the bound/input enrichment was 0.102 ratio.
`UACUCAACUUUCUUGCCACAUUUUGAAUUCCAAGAUGUUAUUCCUCCAGAUGACUUCCUAACGAGUGAUGAAGAGCAAGAUUCCGUUUUAUUUGGAACUAUGAGAGGACAAGUUGUUGGA` gave a bound/input enrichment of 0.166 ratio.
The bound/input enrichment of `UUAAUCCCCUUUACUGCUCCCCCACUUCUCAUGGUAAUAACAAAGUCUUAUAUCCCCGUCCUAGCUUUCACUCAGAUGGCUUAUGGAGCCAGUUUCCUAUCUUUCUUGGGAGGGAUCAGA` is reported as 0.297 ratio.
`UACAUUUUAUUGUUGAGUUUCAUUUUCUUGUAUGUUUGUAGUGUCUGCUUGCCUGUGACUUCUGGUAAAAUAAAAUAAGCCUUUGAAAAUAUUUUAGCAUGGUAUUUAACAUUUUCUAAA` has a bound/input enrichment of 1.75 ratio.
For `GGACAUCUGUCAAAUUGUUAUGUUCCUGUGAAACAAGUGAACACUCUGAUACACUUCAUUUAGUUGUACAUCUGUAUGAUAGAGAAAUGUAAAUAUGUUAAUCCAAGCAAUGUGUCACUU`, the bound/input enrichment was 0.265 ratio.
For `AAAGAACCUCUCUCUGAUGAAGAUGAGGAAGACAAUGAUGAUGUUGAACCUAUUACUGAAUUUAGAUUUGUGCCCAGUGAUAAGUCAGCAUUGGAGGCGAUGUUCACAGCAAUGUGUGAG`, the bound/input enrichment was 0.946 ratio.

Sample 3 — technique: protein binding microarray; form: double-stranded DNA, one strand shown; matrix: in vitro; tested at: not given; baseline: not given; direction: higher = stronger binding
Target: Histone acetyltransferase KAT6A, winged helix 1, GST fusion (KAT6A, Homo sapiens, UniProt Q92794, residues 1-85)
Notes: 8-mer, flanks averaged, mean of 2 arrays, mostly near background
Residues (chain): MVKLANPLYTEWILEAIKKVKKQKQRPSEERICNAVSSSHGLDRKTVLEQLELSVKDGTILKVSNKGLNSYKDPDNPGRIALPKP
The E-score of `ACGCGCGC` is reported as 0.452.
With `AGAGTGTG` the E-score was -0.138.
`CCTCTAAC` gave an E-score of -0.153.
The E-score of `AAGATCAC` is reported as -0.0908.
For `ACCGGAGC`, the E-score was 0.201.
`AAATTTGG` gave an E-score of -0.354.
`GCGTCACC` gave an E-score of 0.162.
The E-score of `CAGCTTTA` is reported as -0.181.
With `ATAATTTA` the E-score was 0.00903.
`CACGTGAA` gave an E-score of -0.0152.
`AGCCTGGA` gave an E-score of -0.143.
`CGACCAAC` gave an E-score of -0.0767.
`CGCAGAAG` gave an E-score of 0.0797.
With `GAGGTCCC` the E-score was 0.0202.
For `CGCTATGC`, the E-score was 0.317.
`ATCAACCG` has an E-score of 0.0925.
`ACACAGGA` has an E-score of -0.213.
With `CGTTTAAC` the E-score was -0.111.
`AAACTCAC` gave an E-score of -0.11.
The E-score of `TACTGCAA` is reported as -0.124.
`GAATCCAC` gave an E-score of -0.0744.
`ATTTTTAG` has an E-score of -0.0492.
`ACCGAAGT` gave an E-score of -0.11.

Sample 4 — technique: RNA Bind-n-Seq; form: RNA; matrix: in vitro; tested at: 200 nM; notes: whole 134-nt RNA, ends assumed; with: 150 mM KCl; baseline: input library; direction: higher = stronger binding
Target: Fragile X messenger ribonucleoprotein 1, C-terminal low-complexity region (Fmr1, Mus musculus, UniProt P35922)
All sequences stand within: GGGAGUUCUACAGUCCGACGAUC … UGGAAUUCUCGGGUGUCAAGG
The log2 enrichment of `CCUCAAGUCCUGUGCUACACAUCGUAUGUACCGAAUCGGAAAGGAGGUUUGGAAAGUAUUAUGUUACGCCGUUCGGAUCUGCACUUCCAG` is reported as -0.0682.
With `CCUGUGCUACACAUCGUAUGUACCGAAUCGGCCCCCCGGGGCCCCCCGGGCCCCCCGGGGAAAGUAUUAUGUUACGCCGUUCGGAUCUGC` the log2 enrichment was -0.802.
`GUCCUGUGCUACACAUCGUAUGUACCGAAUCGGGUUUUUGGUUUUUGGGGUUUUUGGGAAAGUAUUAUGUUACGCCGUUCGGAUCUGCAC` gave a log2 enrichment of -0.116.
`GCAGGAAGUAAAAACAAAUGGAAAUGCUUCGGAUAGUGGCAGGGGUGGGGGUUGCUAAGGAAAGGGUGGGAUGGAAAUGGGUAAAGAGUU` gave a log2 enrichment of 0.483.
The log2 enrichment of `UCCUGUGCUACACAUCGUAUGUACCGAAUCAAAUUUUUUUAAAUUUUUUUAAAUUUAAAAAAGUAUUAUGUUACGCCGUUCGGAUCUGCA` is reported as -0.681.
With `GCAGGAAGUAAAAACAAAUGGAAAUGCUUCGGAUAGUGGCAGGGGUGCGGGUUGCUAAGGAAAGGGUGGGAUGGGAGUGGGUAAAGAGUU` the log2 enrichment was 0.312.
`CACAGACAACACGCACCCACACAGACACAGAGGGAAGGGGUUGGGAUGGGGACAGGGUGCACAGCAGGGCGGGGUAGGACCCCAGCCCCU` has a log2 enrichment of 1.25.
With `ACCAUGCAGGUGGGCAUCUUUGGGAAGUGGGGCAAGGGGGGGAUAGGGAGGGGGGUAACACUUUGGGAACAGGUGGUCCCAGGUUGUUUC` the log2 enrichment was 0.635.
With `UUAAGACAGUCAUUUUAAAAUGGUGGCUGAAUUUCCCAACCCACCCCCAAACUAAACACUAAGUUUAAUUUUCAGCUCCUCUGUUGGACA` the log2 enrichment was 0.028.
With `CUCAAGUCCUGUGCUACACAUCGUAUGUACCGAAUCGGGGUUGGUUGGUUGGGGAAAGUAUUAUGUUACGCCGUUCGGAUCUGCACUUCC` the log2 enrichment was 0.24.
`AAGUCCUGUGCUACACAUCGUAUGUACCGAAUCGGGGAAAAGGGAAAAGGAAAAGGAAAGUAUUAUGUUACGCCGUUCGGAUCUGCACUU` gave a log2 enrichment of -0.525.
`ACCAUGCAGGUGGGCAUCUUUGGGAAGUGGGGCAAGGAAAGGAUAGGGAGGGGGGUAACACUUUGGGAACAGGUGGUCCCAGGUCGUUUC` gave a log2 enrichment of 0.498.
`UGCGUGCUUGUGUCCUGGAGCUGGAAGAGCGGCUGAGCACGCAGGAGGGCUUGGUGCAAGAGCUUCAGAAAAAACAGGUGGAAUUGCAGG` has a log2 enrichment of -0.227.
The log2 enrichment of `AAAGCAAGAGAUGGCUAGUGCUUCAUCCAGCCAAAGAGGUAUGCUUGUUGCUUAAUUAAACCUUAAAGGUAACUUUGAGUUACUCCAGUA` is reported as -0.876.

Repeated from above (sample 3):
`CACGTGAA` gave an E-score of -0.0152.
`AGCCTGGA` gave an E-score of -0.143.
`CGACCAAC` gave an E-score of -0.0767.
`CGCAGAAG` gave an E-score of 0.0797.
With `GAGGTCCC` the E-score was 0.0202.
